Experimental data gathered from unrelated publications.
A part holds a random share of what one study measured. Positions count from the first letter of the parent shown.

Set 1
Target: Histone acetyltransferase KAT6A, winged helix 2, GST fusion (KAT6A, Homo sapiens, UniProt Q92794, residues 85-181)
Method: protein binding microarray
Molecule type: double-stranded DNA, one strand shown
Matrix: in vitro
Concentration: not given
Notes: 8-mer, flanks averaged, mean of 2 arrays, mostly near background
Reference: not given
Reading: higher = stronger binding
Construct (chain): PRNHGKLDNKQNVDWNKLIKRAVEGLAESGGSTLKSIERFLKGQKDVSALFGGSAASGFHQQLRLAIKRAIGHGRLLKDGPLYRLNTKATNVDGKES
`CTATATAG` gave an E-score of -0.177.
For `ATACGGCG`, the E-score was -0.0279.
With `CCACTAGC` the E-score was -0.118.
`GCAAAAAA` has an E-score of 0.142.
`ATTCGAAT` gave an E-score of -0.0326.
`TGTAATAA` gave an E-score of -0.0811.
`CGCCACAC` has an E-score of 0.0762.
`GGGTCTAC` gave an E-score of -0.0702.
`ATATATTC` gave an E-score of 0.0286.
`CGCACAAC` has an E-score of 0.014.

Set 2
Target: CCNA2, cyclin fold, Cln2 fusion (human)
Method: yeast growth competition, sequencing
Matrix: yeast
Notes: strong parent motif
Reference: not given
Reading: higher = stronger binding
Starting sequence: RBL2 docking peptide (human); STTRRRLFVENDS; partner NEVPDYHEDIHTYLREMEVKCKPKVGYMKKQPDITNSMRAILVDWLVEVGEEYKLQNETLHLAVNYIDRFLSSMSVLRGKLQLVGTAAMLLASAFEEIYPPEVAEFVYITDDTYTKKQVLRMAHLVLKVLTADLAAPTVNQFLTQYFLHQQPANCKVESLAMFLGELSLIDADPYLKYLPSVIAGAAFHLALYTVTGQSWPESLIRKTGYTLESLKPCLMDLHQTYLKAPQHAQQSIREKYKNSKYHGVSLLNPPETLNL
Under “normalised enrichment score”, `STTRRRLFVELDS [N11L]` is recorded as 5.78.
`STTRRRLFVKNDS [E10K]` — result for “normalised enrichment score”: 3.68.
`STTRRRLFVRNDS [E10R]` — result for “normalised enrichment score”: 3.34.

Set 3
Target: RING finger protein unkempt homolog, zinc fingers 1-6, GST-SBP tag (UNK, Homo sapiens, UniProt Q9C0B0, residues 30-357)
Method: RNA Bind-n-Seq
Molecule type: RNA
Matrix: in vitro
Concentration: not given
Notes: RNA with constant flanks, human-mouse chimeric sites, ends assumed
Reference: input RNA pool
Reading: higher = stronger binding
Residues (chain): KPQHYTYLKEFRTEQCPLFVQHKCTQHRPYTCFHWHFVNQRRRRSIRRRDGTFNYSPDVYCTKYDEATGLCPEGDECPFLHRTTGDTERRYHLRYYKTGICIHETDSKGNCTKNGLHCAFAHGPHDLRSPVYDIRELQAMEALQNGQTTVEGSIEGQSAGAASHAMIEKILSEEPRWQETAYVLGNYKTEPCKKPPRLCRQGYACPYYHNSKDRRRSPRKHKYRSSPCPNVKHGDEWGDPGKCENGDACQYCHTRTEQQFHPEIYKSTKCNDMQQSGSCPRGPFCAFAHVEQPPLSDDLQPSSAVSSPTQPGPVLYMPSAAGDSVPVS
`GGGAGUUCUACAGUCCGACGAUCAGGAGGAGGUUAAAGGGUGAAAAUGGGGUGGAAGACUGUGUCAUGGCUCUGGAGACACUGUUCAGUGUCCUGCUUUCUCUGUGCAGACUGAUGGCCCCUUACACGCCCUUUCUGACUGAGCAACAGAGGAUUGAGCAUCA` has a bound/input enrichment of 0.0611 ratio.
The bound/input enrichment of `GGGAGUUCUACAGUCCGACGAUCCCUCCCCCGGGCCACCCACCCCUCCCGGCUCCCCGCCGAGAUCCAGGUUUCUUCUGUUUUCAUAGCAAAUAAGAAAAAUGUUCUACGCACAUUUUGUCCUCAGUAAACGAGGGCCUCUGGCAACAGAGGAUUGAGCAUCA` is reported as 0.642 ratio.
For `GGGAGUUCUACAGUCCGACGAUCACCAUUUCUGAAUACACGGCUUUGUGUGUAGUUCACUUACGGUAUUAAAUUAUUAUUCUGCUUAGCUUAUAAUAAGGAUAAUUGCAUUUAAAGAGGUUACUGAAUGUUGUUAUUGUUCUUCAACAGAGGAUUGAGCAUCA`, the bound/input enrichment was 1.03 ratio.
The bound/input enrichment of `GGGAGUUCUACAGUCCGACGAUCCAGCGCCGAGGCCGCGGUUUCCCCCUGGGCCUCCCCAGCCGCCGCCAUGGGCAUCAAAUUUUUAGAAGUUAUCAAACCAUUCUGUGCAGUUCUACCAGAAAUUCAGAAACCGGAAAGGAACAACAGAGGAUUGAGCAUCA` is reported as 1.36 ratio.
`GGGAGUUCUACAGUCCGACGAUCGAUCUCGGGCCCUCCCCAGGGGCCUCCUUUCGUAUAGUCACUGCUUCUGCAUCAGAUACUUUCAGCUGCAACUCCCUACUGGGUGGGGCACCCAUUUCAGGCAGAAGUUGGUGCCCCCCUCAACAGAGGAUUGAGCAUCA` has a bound/input enrichment of 0.123 ratio.
`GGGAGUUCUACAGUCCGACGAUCGCUGGAUCUUCUAAGUACCAGUGGGACAUUAUGAAAUCCCUUGGGCUCUCUGAUGACGAGAUAGUAAAGUUUUCUGAAGCAGAGCACUGGCUUGAUUAUUUCCCACCACUGGCCGUUCAGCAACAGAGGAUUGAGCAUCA` gave a bound/input enrichment of 0.175 ratio.
With `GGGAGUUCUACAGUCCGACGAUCAUCAAAUACUUUGGGGACAUCAUUAGUGUGGGACAGAGACUGUUGCAAGGAGCUCGGAUCUUAGGGAUUCCUGUUAUCAUAACGGAACAAUACCCCAAAGGUCUUGGCAGCACCGUUCAACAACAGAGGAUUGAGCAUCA` the bound/input enrichment was 0.146 ratio.
The bound/input enrichment of `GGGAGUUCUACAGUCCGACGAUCCGGAGCCCUCCUCUCCCACAGGCCCAAGAUAUAACCCACCAGUGCCUUCUGUCUGCUUGUCAGCUCUAAUCAAUCAUCCUGUCCUCUCACGCCCACACCAAGUGCCCAAAGUGGGGAGGGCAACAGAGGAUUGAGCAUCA` is reported as 0.432 ratio.

Other studies, line by line
With `PhoQ, residues 284 288 289 292 302 303 AGHLVA` the fold induction was 0.587 (PhoP, residues 12 14 15 18 19 NHFIF (Escherichia coli, UniProt P23836); Sort-seq, measured: YFP reporter; E. coli; PhoQ-PhoP variant library, with: 10 µM Mg2+; reference: high Mg2+ state, higher = stronger signaling).

For quick reference, copied from above (set 2):
Under “normalised enrichment score”, `STTRRRLFVELDS [N11L]` is recorded as 5.78.
`STTRRRLFVKNDS [E10K]` — result for “normalised enrichment score”: 3.68.
`STTRRRLFVRNDS [E10R]` — result for “normalised enrichment score”: 3.34.
